Published values pooled from the literature.
± gives the spread as reported.
folP: Dihydropteroate synthase (folP, Bacteria, UniProt P0AC13)
Sequence of UniProt P0AC13 (whole entry, looked up): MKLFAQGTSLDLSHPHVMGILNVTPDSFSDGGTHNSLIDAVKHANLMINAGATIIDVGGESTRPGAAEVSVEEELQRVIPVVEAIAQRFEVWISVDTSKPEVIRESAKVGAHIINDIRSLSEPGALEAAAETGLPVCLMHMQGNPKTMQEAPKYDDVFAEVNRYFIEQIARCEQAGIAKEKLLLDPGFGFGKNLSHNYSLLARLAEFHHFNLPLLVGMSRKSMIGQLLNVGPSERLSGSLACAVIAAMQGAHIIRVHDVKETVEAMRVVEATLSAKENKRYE
ATP6V1A: V-type proton ATPase catalytic subunit A (ATP6V1A, Homo sapiens, UniProt P38606)
Sequence of UniProt P38606 (whole entry, looked up): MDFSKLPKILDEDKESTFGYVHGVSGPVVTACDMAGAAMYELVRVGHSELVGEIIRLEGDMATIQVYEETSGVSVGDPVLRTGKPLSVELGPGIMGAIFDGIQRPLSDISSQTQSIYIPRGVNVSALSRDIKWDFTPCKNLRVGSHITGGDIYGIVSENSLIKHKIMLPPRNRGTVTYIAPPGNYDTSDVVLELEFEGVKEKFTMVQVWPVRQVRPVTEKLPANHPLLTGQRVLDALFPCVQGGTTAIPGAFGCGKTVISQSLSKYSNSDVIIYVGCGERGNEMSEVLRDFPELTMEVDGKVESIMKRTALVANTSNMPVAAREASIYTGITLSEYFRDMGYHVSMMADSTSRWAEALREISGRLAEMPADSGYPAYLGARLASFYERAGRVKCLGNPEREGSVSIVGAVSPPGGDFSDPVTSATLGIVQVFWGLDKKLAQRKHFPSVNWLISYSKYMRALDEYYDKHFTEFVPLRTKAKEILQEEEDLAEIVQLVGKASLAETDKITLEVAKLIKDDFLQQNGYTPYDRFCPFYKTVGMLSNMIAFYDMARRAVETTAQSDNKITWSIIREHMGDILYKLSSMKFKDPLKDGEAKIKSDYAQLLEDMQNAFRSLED
T1: RNA aptamer; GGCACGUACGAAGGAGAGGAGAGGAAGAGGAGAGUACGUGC
T2: RNA aptamer; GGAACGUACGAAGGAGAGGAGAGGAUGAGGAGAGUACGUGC
Sequence of UniProt Q6DD88 (whole entry, looked up): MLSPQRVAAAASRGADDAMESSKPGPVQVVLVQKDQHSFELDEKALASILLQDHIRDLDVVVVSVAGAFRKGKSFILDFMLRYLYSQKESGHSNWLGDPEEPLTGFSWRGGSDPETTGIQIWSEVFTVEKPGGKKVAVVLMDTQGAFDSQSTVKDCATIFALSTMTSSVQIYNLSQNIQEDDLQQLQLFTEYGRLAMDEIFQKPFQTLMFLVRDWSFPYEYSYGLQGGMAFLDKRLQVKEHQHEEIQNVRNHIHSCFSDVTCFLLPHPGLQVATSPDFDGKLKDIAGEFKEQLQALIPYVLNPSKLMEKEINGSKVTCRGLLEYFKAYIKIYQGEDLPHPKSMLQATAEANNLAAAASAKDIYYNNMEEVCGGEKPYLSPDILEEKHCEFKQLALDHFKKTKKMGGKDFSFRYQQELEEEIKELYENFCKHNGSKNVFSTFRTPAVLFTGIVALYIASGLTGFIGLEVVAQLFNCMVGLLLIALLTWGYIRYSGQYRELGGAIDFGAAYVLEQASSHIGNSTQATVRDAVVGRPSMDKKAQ
Sequence of UniProt Q4FZB7 (whole entry, looked up): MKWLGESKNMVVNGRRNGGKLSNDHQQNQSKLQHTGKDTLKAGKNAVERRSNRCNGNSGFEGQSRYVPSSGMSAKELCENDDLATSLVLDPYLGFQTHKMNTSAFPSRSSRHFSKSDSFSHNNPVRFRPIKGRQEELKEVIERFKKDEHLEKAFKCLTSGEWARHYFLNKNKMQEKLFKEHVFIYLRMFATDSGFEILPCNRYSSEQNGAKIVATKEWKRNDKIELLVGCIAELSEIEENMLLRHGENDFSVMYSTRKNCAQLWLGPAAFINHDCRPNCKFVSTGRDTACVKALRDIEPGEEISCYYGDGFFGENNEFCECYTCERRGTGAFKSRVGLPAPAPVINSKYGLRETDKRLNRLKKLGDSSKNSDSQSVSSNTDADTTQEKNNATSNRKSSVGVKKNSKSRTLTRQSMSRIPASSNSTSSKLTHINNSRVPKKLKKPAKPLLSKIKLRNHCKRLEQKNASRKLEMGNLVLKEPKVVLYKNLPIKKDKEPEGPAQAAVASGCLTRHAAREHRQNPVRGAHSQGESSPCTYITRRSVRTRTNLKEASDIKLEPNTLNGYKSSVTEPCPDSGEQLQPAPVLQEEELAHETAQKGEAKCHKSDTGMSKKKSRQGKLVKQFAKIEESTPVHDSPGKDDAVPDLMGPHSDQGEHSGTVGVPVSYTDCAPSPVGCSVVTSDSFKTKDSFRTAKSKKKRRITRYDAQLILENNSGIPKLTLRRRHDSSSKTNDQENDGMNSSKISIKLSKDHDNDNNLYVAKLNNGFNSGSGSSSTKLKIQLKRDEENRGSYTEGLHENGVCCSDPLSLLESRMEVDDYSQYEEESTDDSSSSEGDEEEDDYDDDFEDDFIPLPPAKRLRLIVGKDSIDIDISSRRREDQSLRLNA
Sequence of UniProt P18031 (whole entry, looked up): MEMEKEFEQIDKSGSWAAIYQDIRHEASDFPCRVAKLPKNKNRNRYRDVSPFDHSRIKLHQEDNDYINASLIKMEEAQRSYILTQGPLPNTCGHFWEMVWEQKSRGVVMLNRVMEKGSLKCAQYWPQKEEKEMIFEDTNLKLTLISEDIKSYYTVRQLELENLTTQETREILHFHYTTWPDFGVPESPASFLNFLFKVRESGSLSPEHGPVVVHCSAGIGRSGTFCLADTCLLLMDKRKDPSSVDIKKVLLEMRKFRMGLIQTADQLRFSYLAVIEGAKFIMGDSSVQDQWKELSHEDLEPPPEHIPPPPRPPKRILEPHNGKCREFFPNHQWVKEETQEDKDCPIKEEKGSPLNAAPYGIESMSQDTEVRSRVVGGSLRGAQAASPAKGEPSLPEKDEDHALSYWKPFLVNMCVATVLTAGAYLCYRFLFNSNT
Sequence of UniProt P00690 (whole entry, looked up): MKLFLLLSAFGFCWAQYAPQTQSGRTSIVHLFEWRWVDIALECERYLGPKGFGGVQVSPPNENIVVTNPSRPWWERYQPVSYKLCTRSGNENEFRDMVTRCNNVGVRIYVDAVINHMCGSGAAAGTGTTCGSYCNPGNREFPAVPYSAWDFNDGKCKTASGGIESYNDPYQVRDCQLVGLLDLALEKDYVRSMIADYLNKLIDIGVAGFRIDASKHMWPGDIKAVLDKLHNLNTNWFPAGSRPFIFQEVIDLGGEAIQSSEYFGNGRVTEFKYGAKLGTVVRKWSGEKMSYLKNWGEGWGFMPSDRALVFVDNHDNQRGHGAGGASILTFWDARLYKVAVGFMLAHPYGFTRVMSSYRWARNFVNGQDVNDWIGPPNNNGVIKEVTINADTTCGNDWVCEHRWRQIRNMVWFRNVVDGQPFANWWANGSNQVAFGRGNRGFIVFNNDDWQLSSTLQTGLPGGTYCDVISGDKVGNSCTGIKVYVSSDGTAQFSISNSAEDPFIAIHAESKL
Sequence of UniProt Q13148 (whole entry, looked up): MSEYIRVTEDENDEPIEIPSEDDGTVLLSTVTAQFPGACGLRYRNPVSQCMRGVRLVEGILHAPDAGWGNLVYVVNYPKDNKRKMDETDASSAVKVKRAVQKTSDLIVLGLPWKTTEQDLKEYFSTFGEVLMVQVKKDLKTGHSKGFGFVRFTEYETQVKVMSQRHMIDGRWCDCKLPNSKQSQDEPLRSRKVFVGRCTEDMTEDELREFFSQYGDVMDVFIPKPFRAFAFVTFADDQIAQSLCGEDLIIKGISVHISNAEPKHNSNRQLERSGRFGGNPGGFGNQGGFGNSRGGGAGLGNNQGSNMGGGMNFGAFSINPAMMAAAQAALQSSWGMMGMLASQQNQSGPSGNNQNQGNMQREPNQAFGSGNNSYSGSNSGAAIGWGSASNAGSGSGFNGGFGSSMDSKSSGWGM
Sequence of UniProt P0A988 (whole entry, looked up): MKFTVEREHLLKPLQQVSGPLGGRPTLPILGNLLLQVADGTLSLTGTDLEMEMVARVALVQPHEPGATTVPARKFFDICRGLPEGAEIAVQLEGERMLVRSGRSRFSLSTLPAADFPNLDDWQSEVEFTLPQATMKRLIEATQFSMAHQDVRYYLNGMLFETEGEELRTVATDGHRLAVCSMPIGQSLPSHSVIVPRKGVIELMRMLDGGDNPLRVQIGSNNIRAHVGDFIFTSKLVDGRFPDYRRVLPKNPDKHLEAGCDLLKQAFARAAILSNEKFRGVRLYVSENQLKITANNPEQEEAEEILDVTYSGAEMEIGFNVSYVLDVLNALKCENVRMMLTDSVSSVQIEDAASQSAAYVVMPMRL
Sequence of UniProt Q14145 (whole entry, unmodified, looked up): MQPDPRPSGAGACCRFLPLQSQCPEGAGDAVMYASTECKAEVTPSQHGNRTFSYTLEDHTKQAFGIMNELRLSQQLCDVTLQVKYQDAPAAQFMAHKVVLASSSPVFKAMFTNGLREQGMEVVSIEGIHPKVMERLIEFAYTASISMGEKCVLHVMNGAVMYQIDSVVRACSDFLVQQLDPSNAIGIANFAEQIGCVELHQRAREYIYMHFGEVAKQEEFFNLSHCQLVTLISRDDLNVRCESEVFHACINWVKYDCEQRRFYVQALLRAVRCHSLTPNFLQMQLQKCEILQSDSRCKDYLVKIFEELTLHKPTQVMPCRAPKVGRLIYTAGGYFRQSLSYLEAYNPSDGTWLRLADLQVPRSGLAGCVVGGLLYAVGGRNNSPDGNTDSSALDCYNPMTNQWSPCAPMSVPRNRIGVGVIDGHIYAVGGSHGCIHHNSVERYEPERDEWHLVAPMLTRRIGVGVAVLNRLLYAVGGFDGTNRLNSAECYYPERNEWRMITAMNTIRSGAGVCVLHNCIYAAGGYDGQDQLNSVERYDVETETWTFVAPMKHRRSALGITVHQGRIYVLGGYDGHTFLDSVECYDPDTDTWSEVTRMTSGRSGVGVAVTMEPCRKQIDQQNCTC
Sequence of UniProt P21964 (whole entry, looked up): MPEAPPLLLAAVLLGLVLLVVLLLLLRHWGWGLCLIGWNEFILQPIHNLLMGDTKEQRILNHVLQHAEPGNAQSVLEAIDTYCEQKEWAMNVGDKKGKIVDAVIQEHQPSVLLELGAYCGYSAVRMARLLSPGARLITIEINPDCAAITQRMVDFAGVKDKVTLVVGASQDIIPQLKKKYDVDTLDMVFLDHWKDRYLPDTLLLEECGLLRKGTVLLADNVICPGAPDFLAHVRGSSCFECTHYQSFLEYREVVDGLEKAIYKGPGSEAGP

Cn1nnnc1SCc1nn(C)c2nc(N)[nH]c(=O)c2c1=O  melting temperature (folP; CETSA HiBiT; whole cells): 63.7 °C
COc1cc(-c2cn(C)c(=O)c3cnccc23)cc(OC)c1CN(C)C  ΔTm (TAF1 (Homo sapiens, UniProt P21675)): 1 °C
CC(=O)N[C@@H](CO)C(=O)N[C@@H](C)C(=O)N[C@@H](CCCCN)C(=O)N[C@@H](C)C(=O)N[C@@H](C)C(=O)N[C@@H](CC(=O)O)C(=O)N[C@@H](CC(=O)O)C(=O)N1CCC[C@H]1C(=O)N[C@@H](CCC(=O)O)C(=O)N[C@@H](CC(N)=O)C(=O)NCC(=O)N[C@@H](CCC(=O)O)C(=O)N[C@@H](CCCNC(=N)N)C(=O)N[C@@H](CCC(=O)O)C(=O)N[C@@H](CO)C(=O)N[C@@H](Cc1c[nH]cn1)C(=O)N[C@H](C(=O)N1CCC[C@H]1C(=O)N[C@H](C(=O)N[C@@H](CO)C(N)=O)C(C)C)[C@@H](C)O  TΔS (Kelch-like ECH-associated protein 1, Kelch domain (KEAP1, Homo sapiens, UniProt Q14145); binding, ITC; pH 7, 298.15 K): -7.21 kcal/mol
Cn1c(=O)n(C2CCC(=O)NC2=O)c2ccc(C3CCN(CC(=O)Nc4cccc(CS(=O)(=O)N5CC[C@H](Nc6cccc(-c7sc(C(=O)O)c(OCC(=O)O)c7Cl)c6)CC5(C)C)c4)CC3)cc21 (some centres unmarked)  BLI binding response (PTPN1 (Homo sapiens, UniProt P18031); degrader, bio-layer interferometry; 1000 nM, biotinylated protein immobilised; higher = more binding): 0.239 a.u.
COc1c(O[C@@H]2O[C@H](C(=O)O)[C@@H](O)[C@H](O)[C@H]2O)cc(O)c2c(=O)cc(-c3ccccc3)oc12  binding index (COMT (Homo sapiens, UniProt P21964); UV; baseline: native over denatured target): 0.35
C=C1C[C@@]2(C(=O)OC)C=C(C(=O)Nc3cccc(C(=O)Nc4ccc(Nc5nccc(-c6cccnc6)n5)c(C)c4)c3)C(=O)[C@@H]1C2  koff (MAPK8 (Homo sapiens, UniProt P45983, C116S); binding, SPR; 100, 300, 1000 nM, 1:1 binding model): 0.0797 s⁻¹
Cn1nc(CO)c(=O)c2c(=O)[nH]c(N)nc21  melting temperature shift (folP; CETSA HiBiT; Escherichia coli, whole cells; concentration not given; baseline: DMSO): 5.51 °C
CCC1(CC)C(=O)N(c2cc(O)cc(C(=O)N3CCN(Cc4ccc(Br)cc4)CC3)c2)C1=O  activity vs control (DPP9 (Homo sapiens, UniProt Q86TI2); enzyme activity, inhibitor; 5 µM): 6.8%
CCCCCCCCCCCCC/C=C/C=O  isoTOP-ABPP competition ratio (ATP6V1A; competitive isoTOP-ABPP; proteome, soluble, MDA-MB-231; 100 µM, together with: iodoacetamide probe; baseline: DMSO over compound-treated, higher = stronger cysteine blockade): 1.2
O=c1[nH]c2ccccc2c(=O)n1O  binding stoichiometry (Flap endonuclease 1 (Homo sapiens, UniProt P39748); ITC; concentration not given, pH 7.5, 25 °C, together with: 8 mM Mg2+): 0.75
Cc1ccc(N(O)/N=N/c2ccc(S(=O)(=O)Nc3nccs3)cc2)cc1  inhibition (AMY2 (Sus scrofa, UniProt P00690); enzyme activity, inhibitor; 60 µg/mL): 10.5%
CC(C(=O)O)c1nn(C)c2nc(N)[nH]c(=O)c2c1=O (centres unmarked)  melting temperature shift (folP; CETSA HiBiT; Escherichia coli, cell lysate; concentration not given; baseline: DMSO): 24.6 °C
CCCCCC=CC=C1C(=O)C=CC1CC=CCCCC(=O)O (centres unmarked)  isoTOP-ABPP competition ratio (Ras-related GTP-binding protein C (RRAGC, Homo sapiens, UniProt Q9HB90); competitive isoTOP-ABPP, refers to: RRAGC cysteine peptide; Ramos soluble proteome; 100 µM, together with: iodoacetamide probe; baseline: DMSO over compound-treated, higher = stronger cysteine blockade): 4.2
Nc1nc2[nH]nc(CCC(=O)O)c(=O)c2c(=O)[nH]1  melting temperature (folP; CETSA HiBiT; Escherichia coli, whole cells): 55.9 °C
CCCCCC[C@H](NC(=O)[C@H](CCC(=O)O)NC(=O)[C@H](CCCNC(=N)N)NC(=O)[C@H](C)NC(=O)[C@H](Cc1c[nH]c2ccccc12)NC(=O)[C@H](CCC(=O)O)NC(=O)[C@H](CCC(=O)O)NC(=O)[C@H](CCC(=O)O)NC(C)=O)C(=O)NCC(=O)N[C@@H](C)C(=O)N[C@@H](CCC(N)=O)C(=O)N[C@@H](CC(C)C)C(=O)N[C@@H](CCCNC(=N)N)C(=O)N[C@@H](CCCNC(=N)N)C(=O)N[C@@H](C)C(=O)N[C@@H](C)C(=O)N[C@@H](CC(=O)O)C(=O)N[C@@H](CC(=O)O)C(=O)N[C@@H](CC(C)C)C(=O)N[C@@H](CC(N)=O)C(=O)N[C@@H](C)C(=O)N[C@@H](CCC(N)=O)C(=O)N[C@@H](Cc1ccc(O)cc1)C(=O)N[C@@H](CCC(=O)O)C(=O)N[C@@H](CCCNC(=N)N)C(=O)N[C@@H](CCCNC(=N)N)C(=O)N[C@@H](CCCNC(=N)N)C(N)=O  ΔΔG (Induced myeloid leukemia cell differentiation protein Mcl-1 homolog, residues 152-308 (Mus musculus, UniProt P97287); binding, SPR; baseline: PUMA peptide): 0.2 kcal/mol
O=C1c2sc(-c3ccc(N4CCC(F)C4)nc3F)nc2CCN1c1cccnc1 (centres unmarked)  SPR response (TAR DNA-binding protein 43, aggregated (TARDBP, Homo sapiens, UniProt Q13148); binding, surface plasmon resonance; brain-derived TDP-43 aggregates; 37.5 nM): 0.978 RU
COc1cc(C2C(NC(=O)c3ccc(NC(=O)OC(C)(C)C)cc3)(C(=O)O)C(c3ccc(OC(=O)c4cccs4)c(OC)c3)C2(NC(=O)c2ccc(NC(=O)OC(C)(C)C)cc2)C(=O)O)ccc1OC(=O)c1cccs1 (centres unmarked)  Emax (GLP1R (Homo sapiens, UniProt P43220, Y152A); cAMP accumulation, agonist; receptor mutant; baseline: wild type): 8.66 ± 4.22%
C[C@@H](Nc1nc(N[C@H](C)C(F)(F)F)nc(-c2cccc(Cl)n2)n1)C(F)(F)F  maximum inhibition (IDH2 (Homo sapiens, UniProt P48735, R172K); 1 h preincubation): 88.6 ± 3.4%
O=C(CCl)N[C@@H](Cc1cccc(O)c1)C(=O)N1CCCC[C@H]1C(=O)NCCc1c[nH]c2cc(Cl)cc(Cl)c12  second transition share (PIN1 (Homo sapiens, UniProt Q13526); protein denaturation, thermal shift): 90%
N#Cc1c(N)nc2c(c1-c1ccc(CO)o1)Cc1cc(O)ccc1-2  TOX-KAT7 interaction (Thymocyte selection-associated high mobility group box protein TOX, with KAT7 (Homo sapiens, UniProt O94900); proximity ligation; MOLT-4; 5 and 10 µM, 24 h): decreased
C[Si](C)(C)C[C@@H](CN)CC(=O)O  inhibition (kainate receptor, rat; binding, radioligand binding; 75 µM, together with: [3H]kainic acid): 2%
Cc1cc(C)cc(COc2cc3c(cc2OCc2cc(C)cc(C)c2)C2CC(O)(Cc4cn(CCOCCOCCNC(=O)CCCCC5SCC6NC(=O)NC65)nn4)CC(C)N2CC3)c1 (centres unmarked)  SILAC ratio (Atlastin-3 (Homo sapiens, UniProt Q6DD88); biotinylated probe pull-down, refers to: ATL3; 10 µM probe; baseline: heavy over light): 2.06
COc1ccc(-c2ccc3c(c2)C(=Cc2sc4ccccc4[n+]2C)C=CN3C)cc1  Kd (T1, RNA aptamer; fluorescence titration): 0.21 nM
CC(=O)N[C@@H](CCC(N)=O)C(=O)N[C@@H](CC1CCCCC1)C(=O)N[C@@H](CNC(=O)CCl)C(=O)N[C@@H](CC(C)C)C(=O)N[C@@H](Cc1ccccc1)C(=O)O  kapp (Beta sliding clamp (Escherichia coli, UniProt P0A988); covalent adduct formation, mass spectrometry; 22 °C): 0.2 M⁻¹ s⁻¹
C/C=C/C(=O)Nc1ccc2nc(NCCCCCN(C)C)nc(NCCCCCCN(C)C)c2c1  inhibition (KMT5B (Homo sapiens, UniProt Q4FZB7); enzyme activity, inhibitor, radiometric; 10 µM): 28%
CC(C)[C@@H]1NC(=O)[C@H](Cc2ccccc2)NC(=O)CSC[C@@H](C(N)=O)NC(=O)[C@H](CCC(=O)O)NC(=O)[C@H](CO)NC(=O)[C@H](Cc2c[nH]c3cccc(Cl)c23)NC(=O)[C@H](C2CCCCC2)NC(=O)[C@H](C(C)C)NC(=O)[C@H](Cc2ccc(O)cc2)NC(=O)[C@H](CC(=O)O)NC(=O)[C@H](Cc2c[nH]c3ccccc23)NC(=O)[C@H](Cc2ccc(N)nc2)NC(=O)[C@H](Cc2c[nH]c3ccc(Cl)cc23)NC(=O)[C@H](CCC(=O)O)NC1=O  remaining activity (Interleukin-1 receptor-like 2 (IL1RL2, Homo sapiens, UniProt Q9HB29); reporter gene (SEAP), inhibitor, HEK-Blue IL-36R reporter; HEK-Blue IL-36R cells; 100 µM, 6 h, together with: IL-36β 100 ng/mL): 36.7%
COc1cccc2c(N3CCC(CCP(=O)(O)O)CC3)ncnc12  kon (ENPP1 (Homo sapiens, UniProt P22413); binding, SPR): 5.22e+06 M⁻¹ s⁻¹
COc1ccccc1-c1ccncc1C(=O)Nc1nnc(OCc2ccc(Cl)cc2)s1  remaining activity (RecQ-like DNA helicase BLM, residues 636–1298 (BLM, Homo sapiens, UniProt P54132); ATPase activity, ADP-Glo; 30 µM, 1 h): 73%
CN(CCCN1CCN(C(=O)CN2CCN(CC(=O)[O-])CCN(CC(=O)[O-])CCN(CC(=O)[O-])CC2)CC1)c1ccc2nccc(C(=O)NCC(=O)N3CC(F)(F)C[C@H]3C#N)c2c1.[Lu+3]  Stern-Volmer constant (Albumin (ALB, Homo sapiens, UniProt P02768); fluorescence quenching, fluorescence spectroscopy): 13200 M⁻¹
C#CCCCCNC(=O)c1ccc(N(C(=O)C=C)c2ccc(Br)cc2)cc1  reactivity ratio (ATP6V1A; mass spectrometry profiling; Ramos cell lysate; 100 µM over 10 µM, UniProt P38606; baseline: high over low concentration): 5.29
Cc1ccc2c(c1)N(C)C=CC2=Cc1sc2ccccc2[n+]1CC(=O)NCCOCCOCCOCCNC(=O)CCCC[C@@H]1SC[C@@H]2NC(=O)N[C@@H]21  Kd (T2, RNA aptamer; fluorescence titration): 8.7 nM
Cc1n[nH]c2nc(N)[nH]c(=O)c2c1=O  melting temperature (folP; CETSA HiBiT; Escherichia coli, whole cells): 56.6 °C
CCCCCCCCCCCCCCCC(=O)OCC(CSC[C@H](N)C(=O)N[C@@H](CO)C(=O)N[C@@H](CCCCN)C(=O)N[C@@H](CCCCN)C(=O)N[C@@H](CCCCN)C(=O)N[C@@H](CCCCN)C(=O)NCCCCCC(=O)N[C@@H](CCCCN)C(=O)N[C@@H](CC(C)C)C(=O)N[C@H](C(=O)N[C@@H](Cc1ccccc1)C(=O)N[C@@H](Cc1ccccc1)C(=O)N[C@@H](Cc1ccc2ccccc2c1)C(=O)O)C(C)C)OC(=O)CCCCCCCCCCCCCCC (some centres unmarked)  fibril diameter (Amyloid-beta precursor protein, fibrillar amyloid-beta (APP, Homo sapiens, UniProt P05067); TEM; 2.0 eq, 3 h, fibril 6, together with: APP 20 µM): 54.7 nm
CC(CC(=O)O)c1n[nH]c2nc(N)[nH]c(=O)c2c1=O (centres unmarked)  melting temperature (folP; CETSA HiBiT; Escherichia coli, whole cells): 56.5 °C
C=C(NC(=O)c1csc(-c2cccnc2)n1)C(=O)NC(=C)C(=O)OC  adduct formation rate (PRDX3 (Homo sapiens, UniProt P30048, A142E/C108S/S139E); MALDI-TOF; 50 µM): 0.0058 ± 0.0002 min⁻¹

Repeated from above:
CC(=O)N[C@@H](CO)C(=O)N[C@@H](C)C(=O)N[C@@H](CCCCN)C(=O)N[C@@H](C)C(=O)N[C@@H](C)C(=O)N[C@@H](CC(=O)O)C(=O)N[C@@H](CC(=O)O)C(=O)N1CCC[C@H]1C(=O)N[C@@H](CCC(=O)O)C(=O)N[C@@H](CC(N)=O)C(=O)NCC(=O)N[C@@H](CCC(=O)O)C(=O)N[C@@H](CCCNC(=N)N)C(=O)N[C@@H](CCC(=O)O)C(=O)N[C@@H](CO)C(=O)N[C@@H](Cc1c[nH]cn1)C(=O)N[C@H](C(=O)N1CCC[C@H]1C(=O)N[C@H](C(=O)N[C@@H](CO)C(N)=O)C(C)C)[C@@H](C)O  TΔS (Kelch-like ECH-associated protein 1, Kelch domain (KEAP1, Homo sapiens, UniProt Q14145); binding, ITC; pH 7, 298.15 K): -7.21 kcal/mol
Cn1c(=O)n(C2CCC(=O)NC2=O)c2ccc(C3CCN(CC(=O)Nc4cccc(CS(=O)(=O)N5CC[C@H](Nc6cccc(-c7sc(C(=O)O)c(OCC(=O)O)c7Cl)c6)CC5(C)C)c4)CC3)cc21 (some centres unmarked)  BLI binding response (PTPN1 (Homo sapiens, UniProt P18031); degrader, bio-layer interferometry; 1000 nM, biotinylated protein immobilised; higher = more binding): 0.239 a.u.
COc1c(O[C@@H]2O[C@H](C(=O)O)[C@@H](O)[C@H](O)[C@H]2O)cc(O)c2c(=O)cc(-c3ccccc3)oc12  binding index (COMT (Homo sapiens, UniProt P21964); UV; baseline: native over denatured target): 0.35
C=C1C[C@@]2(C(=O)OC)C=C(C(=O)Nc3cccc(C(=O)Nc4ccc(Nc5nccc(-c6cccnc6)n5)c(C)c4)c3)C(=O)[C@@H]1C2  koff (MAPK8 (Homo sapiens, UniProt P45983, C116S); binding, SPR; 100, 300, 1000 nM, 1:1 binding model): 0.0797 s⁻¹
